Results pooled from the literature.
Numbered parts are unrelated; each lists some results of a single study. Positions count from the first letter of the parent shown.

Block 1
Target: RING finger protein unkempt homolog, zinc fingers 1-6, GST-SBP tag (UNK, Homo sapiens, UniProt Q9C0B0, residues 30-357)
Sequence of UniProt Q9C0B0 (30-357, looked up): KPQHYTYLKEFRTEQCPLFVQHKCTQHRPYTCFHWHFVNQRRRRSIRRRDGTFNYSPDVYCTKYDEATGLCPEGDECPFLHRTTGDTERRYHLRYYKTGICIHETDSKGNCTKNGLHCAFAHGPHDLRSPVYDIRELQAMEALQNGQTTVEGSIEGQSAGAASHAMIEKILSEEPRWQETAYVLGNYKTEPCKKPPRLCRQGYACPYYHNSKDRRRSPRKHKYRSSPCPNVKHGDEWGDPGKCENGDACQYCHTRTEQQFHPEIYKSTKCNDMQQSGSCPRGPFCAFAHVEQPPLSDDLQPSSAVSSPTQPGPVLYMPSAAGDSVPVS
Method: RNA Bind-n-Seq
Form: RNA
Matrix: in vitro
Concentration: not given
Notes: RNA with constant flanks, ends assumed
Relative to: input RNA pool
Direction: higher = stronger binding
All sequences stand within: GGGAGUUCUACAGUCCGACGAUC … CAACAGAGGAUUGAGCAUCA
Sequence	bound/input enrichment [ratio]
GUAUGGUUUUUGCUUACCCUUUCAAGUCACAGGUAAAUGUUUCAUAAGGAAAUCACAGUUUUCCGAUUCCCUGUUAUUGCUAGUGUGGGACCUGUAGCUGUGGGGUCUGACAUAUUUAUU	0.551
UUCUGUCUGUAGGUAGGUUGUUGAUUCUAAGUAGCUUUCGUUUGUUCGUCUGUCUUAUGUCUCCGACCAGCUUUGUGGUGUUCUUGGCUCAUCUCAUAAUACUGUUGUUCAGUUUAUAUC	0.44
AGGUUAAAGAGAAAUGACUUUUUAGGAACUAGACUUGAACGUAUAAUUAAUAUGUGGAACCCGUUUGCUUUUAUAAUUCAUUGUAUCAAGAAGGAGUCAUGUUUUAAAUCCAAGGCAUUG	0.526
GGGCUGUGUAGAGUAGGGCCCUGUUCUCCUUAGGAUGUUGCUUCUUGAUUUUUUUUUUUUUUCCGGGGUGGGUCAGGGUUGUGACACACCAGCCCAGGUGAGAGCUGCUGCGGGUCACCU	5.95
CAUUGGAGACUGAGCAAAAGGAAAUGUGAAACGAAUAACAUGAUGGAAUAUGUCAUCCUCACCGAAUUUUUACCAAAGACACCGAUUUUUCGACCAGAUUAGCAUUUACUUUAUUUAUAG	19.5
GAAAUAGCAAGUCUUGAUUCAGAGAAUAUAGAUGAAAUUUUAAAUAAUGCUGAUGUUGCUUCCGUAAAUUUUUAUGCUGACUGGUGUCGUUUCAGCCAGAUGUUGCAUCCAAUUUUUGAG	16.7
AUUGUUGAAGCGAAUCCACUUUUAGAAGCAUUUGGAAAUGCAAAGACUGUUCGCAACAAUAACCGCAGUCGAUUUGGAAAAUUUGUAGAAAUUCAUUUCAAUGAAAAGAGUUCGGUUGUU	0.287
UAAAAUUUGCAAGUGUAUGGAGGACUAACCUCACUGACAGGAGGGGAUUCCACCUGGGAUCCGCUUUAUGAUUGUUGAUUGCCUAUUUUGCCAUUUAUAAACUGAAAGAAGGCACUAAAG	0.18
AUUUGGGGCAGUACCAGUCCAUACCAGCUGCGAUUUGUGAGUGGACCUGUGGUAAGAAGAACCGAAAAGGCUCUCAGAGAUAAGGUUUUUUACAUGUGUAACAAUCCCAAGAUUUCCUAG	0.293
AACAGUAGUACAGCUAUUGGGAUCAGAUGUAAAGAUGGUGUUGUGUUUGGGGUAGAAAAACCCGUCCUUUCUAAACUUUAUGAAGAAGGCUCCAAUAAACGUCUUUUUAAUGUUGAUCGA	0.225
CUGAAGCCCAUGUUGCAGCGGGACUUUAUUACCGCUUUACCAGAGCAAGGCUUAGAUCACACCGCAGAAAACAUUCUUUCGUACCUGGAUGCCAGGUCUCUGUGUGCAGCAGAGCUGGUA	0.11

Block 2
Target: RNA binding protein fox-1 homolog 2, RRM domain, GST-SBP tag (RBFOX2, Homo sapiens, UniProt O43251-10, residues 100-194)
Method: RNA Bind-n-Seq
Form: RNA
Matrix: in vitro
Concentration: 365 nM
Notes: natural RNA segment, single round, ends assumed
Relative to: no-protein control
Direction: higher = stronger binding
All sequences stand within: GGGAGUUCUACAGUCCGACGAUC … UGGAAUUCUCGGGUGCCAA
Residues (chain): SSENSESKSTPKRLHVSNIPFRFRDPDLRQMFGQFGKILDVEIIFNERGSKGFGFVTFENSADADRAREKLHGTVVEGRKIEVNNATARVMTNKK
Sequence	RBNS enrichment (R)
GGAUUUUACAGAGUUUUUGAGAAUGGGUGUGAUUACUGACUUGAAUUAAAAAAGAAUUUGGAGUUAGAAAGGAGGGGUUGUCAUCUCCUGGAGCUCAUUGAUUAGAAGAU	0.785
CCAUGUGGCUGUGAAUACAUACUAUGGGAUGGGAUUCAACCCUUCUAAGUAAAUCCUCAGUCUGGUCUAUAUUGUUACUUGCCUGUUUCCACUAGAAGGAGUCACCCAGG	0.371
CUUCUCAAACAAAAAGAAAAGAAAAACGAAUGAUUCAUCUGCUUUAAUCAGUGUGAUUAAUGCAGCACCCAUUGCCCCGGGAACCGUUUCUGCUGUACUAUCUGGAUACU	0.934
CUACCAGACAGCGAAGCACCCUUGCUUCCCAUGCAAUGUCACGGUUUCCUAUACUAUACAUAUAUAUGUGUUCUGGUCGGCAAAGCCUGCCGACCAGAGGAAGUCUCUCU	0.194
UUGUCUGUGAUAACAGAGUGAUUUGUAAAACAGUGGUUGUUUUUUCAUUGUGUUUUCUUCGUGGAUUGUUUUUUCUGCGGGUCAUAUUCAUACCUUCUGAUGAAGUUGUA	0.901
CUCAAGAUGUGUCAUUUUCAGACAUUCUUCAUGUCAGAAGAGCUUUUGUUGUAAGGAGAAAACCAGCUCAGACUUUUGUCCCUGUAGGUGAUGGUAGUGGUCAGAAAUGG	0.478
GUCCCGGGGGCUGAACGUGUGGCGUUUGGUUACUGAAGCCUGCUCAGGCGAAGCUGGGUCUUGUGCAUGUUCCCACUGUUUCAUCCUGUCCUCGCCAGGGAUCUGGGUGG	5.19
AAUAGGACUUGUUUUUUGUUUUUGUUUUGUUGCACUGAAGUAUGACAAAUAGUGUUAUUGGAAGGGAUGUGUAAUUUUUCUGUAUAGACAGGAGAAGAAAUAACUAUCUU	2.58
UUGGCAUUUCUAAGUUCCUAGGUGAUGUUCUACUCACAGUCAGUCCAGAGGAUUACCUUAAGAGUCUCUGCAUUAAACUAGAAAAGUUGCACCUAGAAGGGACAGAGGGU	0.69
UUGAAGACACAGCAGAAAGGGGGCUUAGGGAUGAGGUCCUGGUUUUUCUUGUAUAAAUAGGAGUCAUGGGCGUUAGUUCUGUAGUAAUAACUUCCCAGCACCUGGACAUC	0.879
AUUUUUCUCUACUUACAUGUAUUCCUGUGAAUAAAUCCUUGUUAAGUUAACCCUUUACUUUUCCUUCCAUGUGUAUUUUCUUAUAUACUGUGAAUGUGAAAACCUAACUG	0.295
CUGCAGAUGAAUGGUCAACGCGAGCUAGGUUAGUUAGUGUGAUGUAUAAGGCGCCAUCAUUCCUCAAGUCAAGCCUCCAUCCCAAAGCACCUGGAGCUGUGGCAAUGAUG	0.736

Block 3
Target: CCND3, cyclin fold, Cln2 fusion (human)
Method: yeast growth competition, sequencing
Matrix: yeast
Notes: weak parent motif
Relative to: not given
Direction: higher = stronger binding
Starting sequence: SLBP docking peptide (human); ARYKRKLLINDFG; partner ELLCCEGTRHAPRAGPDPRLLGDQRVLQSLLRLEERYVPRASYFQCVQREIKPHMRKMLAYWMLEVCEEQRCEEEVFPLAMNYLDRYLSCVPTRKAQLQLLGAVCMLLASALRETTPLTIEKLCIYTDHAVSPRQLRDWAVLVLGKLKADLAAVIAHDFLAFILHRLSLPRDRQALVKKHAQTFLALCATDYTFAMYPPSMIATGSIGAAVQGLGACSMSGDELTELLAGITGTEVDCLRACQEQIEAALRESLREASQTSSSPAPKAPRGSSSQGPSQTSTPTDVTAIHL
Change	normalised enrichment score
ARYKRKLLIADFG [N10A]	0.0508
ARRKRKLLINDFG [Y3R]	0.101
CRYKRKLLINDFG [A1C]	-0.0109
IRYKRKLLINDFG [A1I]	0.0996
ARYKCKLLINDFG [R5C]	0.196
ARYKSKLLINDFG [R5S]	0.181
ARYKRALLINDFG [K6A]	0.208
ARDKRKLLINDFG [Y3D]	0.0876
ARYKRKLVINDFG [L8V]	0.223
ARKKRKLLINDFG [Y3K]	0.12
ARYKRKLLIEDFG [N10E]	0.232
ARYKIKLLINDFG [R5I]	0.102
ARYKRKLLQNDFG [I9Q]	0.0518
ARYKRKLLINAFG [D11A]	0.145
ARYKRKKLINDFG [L7K]	0.12
ARYKRKLLINRFG [D11R]	0.144
ARYKRKLLINCFG [D11C]	0.128
ARSKRKLLINDFG [Y3S]	0.213
ARYKRKLLHNDFG [I9H]	0.18

Block 4
Target: Sal-like protein 4, full length isoform A (SALL4, Homo sapiens, UniProt Q9UJQ4, residues 1-1053)
Sequence of UniProt Q9UJQ4 (whole entry, looked up): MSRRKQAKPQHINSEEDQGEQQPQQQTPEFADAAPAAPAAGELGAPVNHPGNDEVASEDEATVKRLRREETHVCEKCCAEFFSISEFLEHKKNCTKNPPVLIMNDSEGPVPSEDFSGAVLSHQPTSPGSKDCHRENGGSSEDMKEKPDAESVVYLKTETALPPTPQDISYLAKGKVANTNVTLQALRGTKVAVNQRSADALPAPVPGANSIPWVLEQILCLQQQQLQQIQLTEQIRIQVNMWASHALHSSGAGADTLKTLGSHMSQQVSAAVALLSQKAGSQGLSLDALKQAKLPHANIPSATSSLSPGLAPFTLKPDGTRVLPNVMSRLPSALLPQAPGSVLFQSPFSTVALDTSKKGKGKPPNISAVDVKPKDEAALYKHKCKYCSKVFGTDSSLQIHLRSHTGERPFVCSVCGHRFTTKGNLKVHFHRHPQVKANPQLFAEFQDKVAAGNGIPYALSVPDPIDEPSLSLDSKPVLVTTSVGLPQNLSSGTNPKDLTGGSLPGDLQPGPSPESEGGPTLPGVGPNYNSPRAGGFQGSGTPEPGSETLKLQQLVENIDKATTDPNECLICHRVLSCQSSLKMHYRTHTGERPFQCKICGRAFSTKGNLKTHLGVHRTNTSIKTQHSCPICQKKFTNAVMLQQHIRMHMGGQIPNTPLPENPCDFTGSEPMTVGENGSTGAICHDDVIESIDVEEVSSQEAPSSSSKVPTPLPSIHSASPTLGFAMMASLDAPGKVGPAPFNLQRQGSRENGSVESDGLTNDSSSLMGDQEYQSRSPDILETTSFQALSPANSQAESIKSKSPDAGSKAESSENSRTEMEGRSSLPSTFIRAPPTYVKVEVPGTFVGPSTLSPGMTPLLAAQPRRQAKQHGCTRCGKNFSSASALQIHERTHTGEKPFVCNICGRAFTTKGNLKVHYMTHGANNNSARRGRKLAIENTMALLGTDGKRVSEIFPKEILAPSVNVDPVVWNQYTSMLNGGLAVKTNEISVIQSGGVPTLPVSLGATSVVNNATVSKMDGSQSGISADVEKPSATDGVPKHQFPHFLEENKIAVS
Method: universal PBM
Form: double-stranded DNA, one strand shown
Matrix: in vitro
Concentration: 600 nM
Notes: 8-mer, flanks averaged, mean of replicates
Direction: higher = stronger binding
Sequence	E-score
GCAGGTCC	-0.265
CGATTGAC	0.101
ATGGTTGC	-0.151
CGGACGCA	-0.219
CATCTCTC	-0.112
CGCTGCAA	0.0472
CTTGGGGC	-0.247
ACTTCGCG	-0.0896
CAAGCCGG	-0.244
GCCAGGAC	-0.224
CTCATGAA	0.132
ATCCAGCA	0.0441
AGTGTTTC	0.0879
CTAACGGA	-0.0214
CGTGCAAG	-0.0994
GATCTCCA	-0.231
GGACACCA	-0.115
CGTACTGA	0.0393
AGAAGCAA	0.108
CCTCACGC	-0.13
ACCTCAGA	-0.183
CCCGCGTA	-0.234
CCTAGAGG	-0.191
TATCTCAA	0.341
CGCTGGCC	-0.428

Block 5
Target: Histone acetyltransferase KAT6A, winged helix 1, GST fusion (KAT6A, Homo sapiens, UniProt Q92794, residues 1-85)
Method: protein binding microarray
Form: double-stranded DNA, one strand shown
Matrix: in vitro
Concentration: not given
Notes: 8-mer, flanks averaged, mean of 2 arrays, mostly near background
Relative to: not given
Direction: higher = stronger binding
Target sequence (chain): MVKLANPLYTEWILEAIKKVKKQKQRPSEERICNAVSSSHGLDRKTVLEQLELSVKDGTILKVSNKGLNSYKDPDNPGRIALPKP
Sequence	E-score
CACTACCA	-0.134
CGCCGTGA	0.4
CTTCGTCC	-0.0209
CAGAACCC	-0.00833
TGTCGCAA	0.00684
CCCGCCGC	0.46
CTTTTCCA	-0.15
GTGCATGA	-0.127
CACCCGGA	0.0299
CCAAACCC	-0.0439
ACTATATA	-0.115
CCGAAGCG	0.277
AGGTCTCC	0.0606
ATTACGAA	-0.0837
ATTGGTGG	-0.26
ACTCTTCC	-0.0544
AAGTTCTG	-0.168

Some of these lines once more (block 1):
Sequence	bound/input enrichment [ratio]
UUCUGUCUGUAGGUAGGUUGUUGAUUCUAAGUAGCUUUCGUUUGUUCGUCUGUCUUAUGUCUCCGACCAGCUUUGUGGUGUUCUUGGCUCAUCUCAUAAUACUGUUGUUCAGUUUAUAUC	0.44
CUGAAGCCCAUGUUGCAGCGGGACUUUAUUACCGCUUUACCAGAGCAAGGCUUAGAUCACACCGCAGAAAACAUUCUUUCGUACCUGGAUGCCAGGUCUCUGUGUGCAGCAGAGCUGGUA	0.11
AUUGUUGAAGCGAAUCCACUUUUAGAAGCAUUUGGAAAUGCAAAGACUGUUCGCAACAAUAACCGCAGUCGAUUUGGAAAAUUUGUAGAAAUUCAUUUCAAUGAAAAGAGUUCGGUUGUU	0.287
AGGUUAAAGAGAAAUGACUUUUUAGGAACUAGACUUGAACGUAUAAUUAAUAUGUGGAACCCGUUUGCUUUUAUAAUUCAUUGUAUCAAGAAGGAGUCAUGUUUUAAAUCCAAGGCAUUG	0.526
GGGCUGUGUAGAGUAGGGCCCUGUUCUCCUUAGGAUGUUGCUUCUUGAUUUUUUUUUUUUUUCCGGGGUGGGUCAGGGUUGUGACACACCAGCCCAGGUGAGAGCUGCUGCGGGUCACCU	5.95
UAAAAUUUGCAAGUGUAUGGAGGACUAACCUCACUGACAGGAGGGGAUUCCACCUGGGAUCCGCUUUAUGAUUGUUGAUUGCCUAUUUUGCCAUUUAUAAACUGAAAGAAGGCACUAAAG	0.18
AUUUGGGGCAGUACCAGUCCAUACCAGCUGCGAUUUGUGAGUGGACCUGUGGUAAGAAGAACCGAAAAGGCUCUCAGAGAUAAGGUUUUUUACAUGUGUAACAAUCCCAAGAUUUCCUAG	0.293
GAAAUAGCAAGUCUUGAUUCAGAGAAUAUAGAUGAAAUUUUAAAUAAUGCUGAUGUUGCUUCCGUAAAUUUUUAUGCUGACUGGUGUCGUUUCAGCCAGAUGUUGCAUCCAAUUUUUGAG	16.7
AACAGUAGUACAGCUAUUGGGAUCAGAUGUAAAGAUGGUGUUGUGUUUGGGGUAGAAAAACCCGUCCUUUCUAAACUUUAUGAAGAAGGCUCCAAUAAACGUCUUUUUAAUGUUGAUCGA	0.225
GUAUGGUUUUUGCUUACCCUUUCAAGUCACAGGUAAAUGUUUCAUAAGGAAAUCACAGUUUUCCGAUUCCCUGUUAUUGCUAGUGUGGGACCUGUAGCUGUGGGGUCUGACAUAUUUAUU	0.551
CAUUGGAGACUGAGCAAAAGGAAAUGUGAAACGAAUAACAUGAUGGAAUAUGUCAUCCUCACCGAAUUUUUACCAAAGACACCGAUUUUUCGACCAGAUUAGCAUUUACUUUAUUUAUAG	19.5
